Measurements of several laboratories.
Numbered parts are unrelated; each lists some results of a single study.

Sample 1
Target: Fragile X messenger ribonucleoprotein 1, C-terminal low-complexity region (Fmr1, Mus musculus, UniProt P35922)
Technique: RNA Bind-n-Seq
Molecule type: RNA
Sample: in vitro
Tested at: 200 nM
Setting: whole 134-nt RNA, ends assumed
Added: 150 mM LiCl
Reference: input library
Reading: higher = stronger binding
Each molecule: 7-deaza-guanosine replaces G
Oligonucleotide | log2 enrichment
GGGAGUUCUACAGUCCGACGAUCUAACUUUAGGGGAGGAUCUGAUGGAUAUGGCAGUGGACGUGGAUUUGGGGAUGGCUAUAAUGGGUAUGGAGGAGGACCUGGAGGUGGCAAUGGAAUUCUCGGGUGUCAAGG | 0.372
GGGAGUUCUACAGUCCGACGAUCUUACACCAAUGAGAAGCUGCAGCAGCUCUUCAACCACACCAUGUUCAUCCUGGAGCAGGAGGAGUACCAGCGCGAGGGCAUCGAGUGGAAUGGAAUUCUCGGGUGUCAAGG | 0.298
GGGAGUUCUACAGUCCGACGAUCAAGUCCUGUGCUACACAUCGUAUGUACCGAAUCAAACCCCCAAAUUUAAAUUUAAAAAAGUAUUAUGUUACGCCGUUCGGAUCUGCACUUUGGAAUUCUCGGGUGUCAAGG | 0.634
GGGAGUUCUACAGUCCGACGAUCGCUGUUGGAGUGGAUCCGCCGCACAAUCCCGUGGCUGGAGAACCGGGUGCCCGAGAACACCAUGCAUGCCAUGCAACAGAAGCUGGAGGAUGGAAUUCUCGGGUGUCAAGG | -3.99
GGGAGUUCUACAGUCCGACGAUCAGUCCUGUGCUACACAUCGUAUGUACCGAAUCGGAAAAAGGUUUUUUUGGUUUUUGGAAAGUAUUAUGUUACGCCGUUCGGAUCUGCACUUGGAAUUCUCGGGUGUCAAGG | -3.55
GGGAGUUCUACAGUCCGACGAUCUGGAUCAAGAGGAAGUAAAAAGAAUUACCAGUCACAGGCUGACAUUCCCAUUCGGUCUCCCUUUGGUAUUGUGAAAGCAUCCUGGCUACCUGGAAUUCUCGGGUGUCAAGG | 0.274
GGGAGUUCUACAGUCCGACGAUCAGUCCUGUGCUACACAUCGUAUGUACCGAAUCGGGAAAAAGGAAAAAGGGAAAAAGGGAAAGUAUUAUGUUACGCCGUUCGGAUCUGCACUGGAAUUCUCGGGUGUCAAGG | -1.12
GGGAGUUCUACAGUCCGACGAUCCACAGACAACACGCACCCACACAGACAAAGAGGGAAGGGGUUGGGAUGGGGACAGGGUGCACAGCAGGGCGGGGUAGGACCCCAGCCCCUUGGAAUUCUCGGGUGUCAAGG | 0.206

Sample 2
Target: Centromere-binding protein 1, full length, His-tagged (CBF1, Saccharomyces cerevisiae, UniProt P17106, residues 1-351)
Chain of UniProt P17106 (whole entry, looked up): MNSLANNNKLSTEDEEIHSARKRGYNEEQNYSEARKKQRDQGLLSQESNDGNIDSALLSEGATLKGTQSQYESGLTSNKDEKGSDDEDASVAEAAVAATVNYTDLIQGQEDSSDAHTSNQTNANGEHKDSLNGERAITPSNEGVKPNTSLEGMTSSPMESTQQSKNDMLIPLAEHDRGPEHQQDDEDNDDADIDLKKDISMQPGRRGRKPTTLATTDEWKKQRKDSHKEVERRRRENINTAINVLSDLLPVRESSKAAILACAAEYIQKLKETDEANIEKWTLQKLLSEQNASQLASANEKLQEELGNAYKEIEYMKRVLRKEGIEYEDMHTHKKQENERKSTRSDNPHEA
Technique: competition protein-binding microarray
Molecule type: double-stranded DNA, one strand shown
Sample: in vitro
Tested at: 2 µM
Setting: whole 60-bp probe, lowest competitor level
Added: Pho4 competitor, 0.05 µM
Reading: higher = stronger binding
Oligonucleotide | fluorescence intensity [a.u.]
CGGACAATATCGGTACTCGTGAAACATTTCTTGCTGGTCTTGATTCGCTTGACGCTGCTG | 137
CGCATATTTCCATAGCGCGTGACGGTAAGTACAAGAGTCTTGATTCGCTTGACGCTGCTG | 513
GCCTATAACAGCACCAACGTGCGGAATACTGATTGCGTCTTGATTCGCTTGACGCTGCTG | 87
ACCAAAGGGTTCTTGCGGGTGTAGATCCCAAGTCCAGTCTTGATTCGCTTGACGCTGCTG | 62.2
TCCTCCACAAACAATCTCGTGGTCGTTTATCCATACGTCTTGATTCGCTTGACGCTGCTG | 195
CGGGGTTAAGTTTTTCACGTGTGTTGCTTGCAGCAGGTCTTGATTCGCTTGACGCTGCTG | 594
TATAAAACAACTTTGAACGTGGCAAATCAGATTGCCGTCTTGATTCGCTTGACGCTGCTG | 126
AAATTACTAAGTTGCGAGGTGGGTGACGCCGTATGAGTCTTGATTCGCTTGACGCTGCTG | 60.5
GTCTTGTCTCATTGACCAGTGGGTGTCCCCACTTCAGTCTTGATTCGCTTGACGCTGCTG | 67.1
ACCAAGACTAACGGCCACGCTGCACCAACCACCAAGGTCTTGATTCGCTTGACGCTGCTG | 72.3
GGATGCCCGAAATCCAACGTGCAAACTATTCTCGGGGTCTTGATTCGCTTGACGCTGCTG | 88.7
CGTCCTAGTGATTGTCACAGGACTTCCATGAGGAAGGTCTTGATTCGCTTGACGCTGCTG | 113
GTCTTGTCTCATTGTTGTGTGGGTGTCCCCACTTCAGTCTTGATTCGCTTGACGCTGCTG | 78.9
AAAGCGGTAATTTGGTTGGTGGGTGCAGATATCTATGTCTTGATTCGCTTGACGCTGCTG | 78.2
CGGATGCTGTTACTACACGTGAACCATCCGGAGAGTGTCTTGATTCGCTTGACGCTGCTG | 668
CGTCCTAGTGATTGTCACCCCACTTCCATGAGGAAGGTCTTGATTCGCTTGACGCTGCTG | 82
AAACTGTCAAGGTTCCTCGTGACTCGGACGAATGTTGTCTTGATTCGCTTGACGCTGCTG | 592

Sample 3
Target: Histone acetyltransferase KAT6A, both winged helices, GST fusion (KAT6A, Homo sapiens, UniProt Q92794, residues 1-181)
Technique: protein binding microarray
Molecule type: double-stranded DNA, one strand shown
Sample: in vitro
Tested at: not given
Setting: 8-mer, flanks averaged, mean of 2 arrays, mostly near background
Reference: not given
Reading: higher = stronger binding
Target sequence (chain): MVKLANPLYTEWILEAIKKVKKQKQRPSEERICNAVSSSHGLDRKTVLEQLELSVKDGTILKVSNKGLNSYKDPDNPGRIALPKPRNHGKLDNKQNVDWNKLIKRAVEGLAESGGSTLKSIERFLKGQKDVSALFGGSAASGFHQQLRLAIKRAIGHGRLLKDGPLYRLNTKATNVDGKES
Oligonucleotide | E-score
CACAAAAC | -0.0856
AGCCTAGC | -0.00789
CAGGTCGA | -0.22
TATGCCCA | -0.154
GAAAGAGC | -0.0147
CCGCTTGA | 0.276
CGAGCACC | 0.0118
AGGGAACT | -0.191
CGGTGCCA | 0.117
CGATGTCA | 0.0424
CCTAGTCA | -0.288
AACGATCG | 0.0732
CAGTACGG | 0.244
ACCTGTAC | -0.00946
GAGCCAAA | -0.107
GACAACTC | -0.0475
CAAGCCTG | -0.135
GGAAGACA | -0.039
CACGCTAC | 0.14
ATTCCTTC | -0.0712
CTCTTCGA | 0.0365
CGACGACC | -0.00974
CCATTCGA | -0.0996
AGGGTGGG | -0.154
TACATCAA | -0.085

Sample 4
Target: RING finger protein unkempt homolog, zinc fingers 1-6, GST-SBP tag (UNK, Homo sapiens, UniProt Q9C0B0, residues 30-357)
Chain of UniProt Q9C0B0 (30-357, looked up): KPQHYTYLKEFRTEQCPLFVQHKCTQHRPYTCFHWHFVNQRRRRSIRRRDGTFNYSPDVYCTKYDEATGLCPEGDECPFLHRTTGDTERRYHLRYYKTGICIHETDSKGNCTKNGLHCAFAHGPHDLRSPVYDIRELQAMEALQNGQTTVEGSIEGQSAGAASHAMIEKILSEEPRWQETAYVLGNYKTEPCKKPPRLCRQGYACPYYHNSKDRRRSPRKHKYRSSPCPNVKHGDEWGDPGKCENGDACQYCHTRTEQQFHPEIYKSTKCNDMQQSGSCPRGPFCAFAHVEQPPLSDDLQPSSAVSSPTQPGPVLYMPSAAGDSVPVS
Technique: RNA Bind-n-Seq
Molecule type: RNA
Sample: in vitro
Tested at: not given
Setting: RNA with constant flanks, human and mouse sites, ends assumed
Reference: input RNA pool
Reading: higher = stronger binding
Oligonucleotide | bound/input enrichment [ratio]
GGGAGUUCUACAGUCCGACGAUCUUUCAUAUGAACUGCUGGAAAAAGUUAAAAACAACAACUUUUAAUGAUAAAAUUGACAAGGAUUUUCUACAAGGAAUCUGUCUCACUCCCGAUUGUGAGGGAAUCAUUUCUAAGAUUAUCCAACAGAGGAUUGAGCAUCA | 0.133
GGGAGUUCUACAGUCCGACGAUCAUACUCUUUAUAUGCUCUGGCUCAAUCAUUCAUAGCCUGGCAGACGAACAAGACAUCCGAAAAAUAGGAAACAUCACAAAAAUCAUACCAUUCACAUCAUCAUGCCUAGUAAUCGGAAGCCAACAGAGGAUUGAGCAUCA | 0.647
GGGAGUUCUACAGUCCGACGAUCAAACGGGAUGUGCUUUGUGGUUACCUUUUGUGUACCAAUAUUGGCAAUAUCCCAAGGCUUGGAGAACUCGAUGGUGAAAUCACAUCUACUUUAGUUGUGCAGCAAGGAAGAACAUUAAACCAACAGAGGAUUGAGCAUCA | 0.179
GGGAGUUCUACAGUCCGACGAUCGUCUGGAGUCUCUCGGGACACGACCAGCUGAUUGUAGACACCGUGUUGAUAUCACUAGAAAUGAAGACCUUGUCAACCAAUAGAGGAACUGUCUGAACCAACUGGGUACUGAUGUCUCUGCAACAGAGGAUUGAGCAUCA | 0.286
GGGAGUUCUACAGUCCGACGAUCUUAGGAGAAGAUUGCAGAUGAUAGAAUGUCCUAUCCGCCCAUCCCCUGCUUUGCAGCUCAAAUAGUUACUCUAAGCUUUGGGUAUUCUACAAAGUUUUCUUAAUUCUUGGAGCAGAGUAUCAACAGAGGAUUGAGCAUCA | 0.108
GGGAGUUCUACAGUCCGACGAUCAGCAUACUGCCAUCAGCUCCAAAAAACCAGCAUUCAACUUGUCUGCCUUUGGAACACUUUCCACCUCACUUGGGAAUUCUUCAAUUCUUAAAACAAGUCAGCUUGGAGACUCUCCUUUUUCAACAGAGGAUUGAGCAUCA | 0.166
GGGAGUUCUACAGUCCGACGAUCCAAUUGCCUAUACUUGGUUCAACCUGCAGGCUCGAAAACGCAAGUACUUUAAAAAGCAUGAGAAACGAAUGUCGAAGGAUGAAGAAAGGGCAGUCAAAGACGAGCUGCUCAGUGAGAAGCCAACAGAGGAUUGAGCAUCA | 0.2
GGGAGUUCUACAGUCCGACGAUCAAGAGAAAAUGCCUGCUGUUGUAAAUGUCUCAGCCCCUCGUUCUUGGUCCUGUCCCUUGGAACCUUUGUACGCUUUGCUCAAAAAAAAACAAAAAAAAAAAACAAAAAAAAAAAACAACGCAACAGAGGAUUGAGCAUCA | 0.418
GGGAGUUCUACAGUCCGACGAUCGUAGCAGAUGAGCUGCAGAAAAUGCUUCUGGUAGAUGAAUUGAGAGAUGCAGUGCUGCUACUUUUUGCAAACAAACAGGAUUUGCCAAAUGCUAUGGCCAUCAGUGAAAUGACAGAUAAACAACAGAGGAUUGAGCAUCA | 0.299
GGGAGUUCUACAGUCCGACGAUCUCAACAUUAGGUUAUAGUGACACUGUGAGCUUUGCUAUGGAAGUGAGUCCUUGGAGUUGUCUUCAGAAGCAAGCAGCAUGGGGGCGGAGUGUGGUUGACUUUUUUCUGGUGAUAACACAGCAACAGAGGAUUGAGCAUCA | 0.453
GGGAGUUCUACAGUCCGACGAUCCUCUGGGCUGUUUCAUAAGCAAGUGGUUUUAAUUAACUCACAAAGCCUUUCUAGACAUUAAUAUUUAUUUUAUUAUUAUUUUUUGUUUUGUUUGGUAUACAUACUACCCAGCAUCUCUUUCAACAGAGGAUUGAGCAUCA | 11.7

A few entries again (sample 3):
Oligonucleotide | E-score
ACCTGTAC | -0.00946
CCGCTTGA | 0.276
CGATGTCA | 0.0424
GAGCCAAA | -0.107
TACATCAA | -0.085
CGAGCACC | 0.0118
CGACGACC | -0.00974
CACAAAAC | -0.0856
AACGATCG | 0.0732
